Assay results from different studies.
Parts stem from different laboratories: compare values within a part only. Positions count from the first letter of the parent shown.

Study 1
Target: CCNA2, cyclin fold, Cln2 fusion (human)
Technique: yeast growth competition, sequencing
Medium: yeast
Notes: strong parent motif
Relative to: not given
Reading: higher = stronger binding
Starting sequence: CDKN1B docking peptide (human); PSACRNLFGPVDH; partner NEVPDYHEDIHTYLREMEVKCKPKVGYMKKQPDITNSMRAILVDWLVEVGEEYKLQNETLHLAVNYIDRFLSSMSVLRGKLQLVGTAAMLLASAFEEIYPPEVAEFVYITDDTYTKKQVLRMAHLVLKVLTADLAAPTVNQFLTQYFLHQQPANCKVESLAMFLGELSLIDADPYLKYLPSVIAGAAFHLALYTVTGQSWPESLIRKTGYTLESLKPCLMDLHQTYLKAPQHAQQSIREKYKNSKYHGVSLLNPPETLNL
| Change | normalised enrichment score |
| --- | --- |
| R5Y | 0.346 |
| A3D | -0.0785 |
| S2L | 2.8 |
| N6Q | 4.19 |
| L7N | 0.0621 |
| S2P | 3.24 |
| H13G | 4.33 |

Study 2
Target: CREBL2, bZIP domain (human)
Technique: DHFR protein complementation
Medium: yeast
Notes: single substitutions, most at no-binding floor
Relative to: wild-type JUN-FOS pair
Reading: higher = stronger binding
Starting sequence: JUN, bZIP domain (human); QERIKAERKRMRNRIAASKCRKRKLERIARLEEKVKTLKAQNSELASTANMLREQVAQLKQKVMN; partner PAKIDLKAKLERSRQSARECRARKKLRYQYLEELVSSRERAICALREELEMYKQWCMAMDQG
| Change | binding fitness [natural log] |
| --- | --- |
| L59A | -1.56 |
| E32A | -1.52 |
| E44Q | -1.58 |
| L45D | -1.53 |
| S47V | -1.48 |

Study 3
Target: Fragile X messenger ribonucleoprotein 1, C-terminal low-complexity region (Fmr1, Mus musculus, UniProt P35922)
Technique: RNA Bind-n-Seq
Form: RNA
Medium: in vitro
Tested at: 200 nM
Notes: whole 134-nt RNA, ends assumed
With: 150 mM KCl
Relative to: input library
Reading: higher = stronger binding
All sequences stand within: GGGAGUUCUACAGUCCGACGAUC … UGGAAUUCUCGGGUGUCAAGG
| Sequence | log2 enrichment |
| --- | --- |
| ACCAUGCAGGUGGGCAUCUUUGGGAAGUGGGGCAAGGGGGGGAUAGGGAGGGGGGUAACACUUUGGGAACAGAAAGUCCCAGGUCGUUUC | 0.475 |
| UGGGAGGUGGAUUUUGUUUAUUUUUUUAGCUCAUUUCCAGGGGUGGGAAUUUUUUUUUAAUAUGUGUCAUGAAUAAAGUUUUUUUUGAAA | 0.177 |
| CACAGACAACACGCACCCACACAGACACAGAGGGAAGGGGUUGGGAUAGGGACAGGGUGCACAGCAGGGCGGGGUAGGACCCCAGCCCCU | 1.16 |
| AAGUCCUGUGCUACACAUCGUAUGUACCGAAUCGGGAGGGUUUUUGGGAAAAAGGGAAAGUAUUAUGUUACGCCGUUCGGAUCUGCACUU | 0.391 |
| UCCUCAAGUCCUGUGCUACACAUCGUAUGUACCGAAUCGGAGGAGGGGAGGAAAGUAUUAUGUUACGCCGUUCGGAUCUGCACUUCCAGC | -0.431 |
| CAAGUCCUGUGCUACACAUCGUAUGUACCGAAUCGGGCCCGGGGCCCGGGCCCGGGAAAGUAUUAUGUUACGCCGUUCGGAUCUGCACUU | -1.04 |
| UUAAAGAAAUGUCCACAAGUAACUUUGAAUCAUCUCCUGAAGUAGAAGAAAGGCCUGCUGUGUCUUUGACUCUUGAUCAGAGCCAGUCAC | -0.773 |

Further values, each from its own experiment
| Substance | target | assay | test system | conditions | how to read | measurement | result |
| --- | --- | --- | --- | --- | --- | --- | --- |
| PhoQ, residues 284 288 289 292 302 303 QWGLFV | PhoP, residues 12 14 15 18 19 SPWRL (Escherichia coli, UniProt P23836) | Sort-seq, item: YFP reporter | E. coli | PhoQ-PhoP variant library, with: 10 µM Mg2+ | relative to: high Mg2+ state, higher = stronger signaling | fold induction | 0.737 |

Repeated from above (study 1):
| Change | normalised enrichment score |
| --- | --- |
| L7N | 0.0621 |
| H13G | 4.33 |
